# Published values pooled from the literature.
# Protocols differ between the studies behind these lines. “And” joins repeats or separate records; there may be more than shown. ± marks the error that the study gave.
SMILES,assay,system,setting,how to read,measurement,value
CCCCCCCCCCCCCCCC(=O)N[C@@H](CCC(=O)NCCCC[C@H](NC(=O)[C@H](CC(=O)O)NC(=O)[C@H](CO)NC(=O)[C@@H](NC(=O)[C@H](Cc1ccccc1)NC(=O)[C@@H](NC(=O)CNC(=O)[C@H](CCC(N)=O)NC(=O)[C@H](C)NC(=O)[C@@H](Cc1ccc(O)cc1)NC(C)=O)[C@@H](C)O)[C@@H](C)O)C(=O)N[C@@H](CO)C(=O)N[C@@H](CCCCN)C(=O)N[C@@H](Cc1ccc(O)cc1)C(=O)N[C@@H](CC(C)C)C(=O)N[C@@H](CC(=O)O)C(=O)N[C@@H](CCC(=O)O)C(=O)N[C@@H](CCCNC(=N)N)C(=O)N[C@@H](C)C(=O)N[C@@H](C)C(=O)N[C@@H](CCC(N)=O)C(=O)N[C@@H](CC(=O)O)C(=O)N[C@@H](Cc1ccccc1)C(=O)N[C@H](C(=O)N[C@@H](CCC(N)=O)C(=O)N[C@@H](Cc1c[nH]c2ccccc12)C(=O)N[C@@H](CC(C)C)C(=O)N[C@@H](CC(C)C)C(=O)N[C@@H](CCC(=O)O)C(=O)NCC(=O)NCC(=O)N1CCC[C@H]1C(=O)N[C@@H](CO)C(=O)N[C@@H](CO)C(=O)NCC(=O)N[C@@H](C)C(=O)N1CCC[C@H]1C(=O)N1CCC[C@H]1C(=O)N1CCC[C@H]1C(=O)N[C@@H](CO)C(N)=O)C(C)C)C(=O)O,,"cynomolgus monkey, plasma","intravenous, 0.0031 mg/kg",,Vss,0.0279 to 0.0405 L/kg
C#Cc1c(F)ccc2cc(O)cc(-c3ncc4c(N5CC6CCC(C5)N6C(=O)OC(C)OC(=O)CC5CCOCC5)nc(OC[C@@]56CCCN5C[C@H](F)C6)nc4c3F)c12 (some centres unmarked),refers to: prodrug,mouse whole blood,1 µM,,t1/2,4.13 min
O=C1NC2(CC2)COc2ncc(F)cc2[C@H]2COCCN2c2ccn3ncc1c3n2,,"Sprague-Dawley rat, female, heart","oral, 10 mg/kg/day, 4 weeks, end of treatment",,organ-to-body weight ratio,0.391 ± 0.034%
CCCCCCCCCCCCCCCC(=O)N[C@@H](CCC(=O)NCCOCCOCCC(=O)NCCOCCOCCC(=O)NCCCC[C@H](NC(=O)[C@H](CC(=O)O)NC(=O)[C@H](CC(C)C)NC(=O)[C@H](Cc1ccc(O)cc1)NC(=O)[C@H](CCCCN)NC(=O)[C@H](CO)NC(=O)[C@H](Cc1ccc(O)cc1)NC(=O)[C@H](CC(=O)O)NC(=O)[C@H](CO)NC(=O)[C@@H](NC(=O)[C@H](Cc1ccccc1)NC(=O)[C@@H](NC(=O)CNC(=O)[C@H](CCC(N)=O)NC(=O)[C@@H](CO)NC(=O)[C@@H](N)Cc1c[nH]cn1)[C@@H](C)O)[C@@H](C)O)C(=O)N[C@@H](CCCNC(=N)N)C(=O)N[C@@H](CCCNC(=N)N)C(=O)N[C@@H](C)C(=O)N[C@@H](CCC(N)=O)C(=O)N[C@@H](CC(=O)O)C(=O)N[C@@H](Cc1ccccc1)C(=O)N[C@H](C(=O)N[C@@H](CCC(N)=O)C(=O)N[C@@H](Cc1c[nH]c2ccccc12)C(=O)N[C@@H](CC(C)C)C(=O)N[C@@H](CC(C)C)C(=O)N[C@@H](CC(N)=O)C(=O)N[C@H](C(=O)NCC(=O)NCC(=O)N1CCC[C@H]1C(=O)N[C@@H](CO)C(=O)N[C@@H](CO)C(=O)NCC(=O)N[C@@H](C)C(=O)N1CCC[C@H]1C(=O)N1CCC[C@H]1C(=O)N1CCC[C@H]1C(=O)N[C@@H](CO)C(N)=O)[C@@H](C)O)C(C)C)C(=O)O,,"rhesus monkey, female, plasma","subcutaneous, 20 µg/kg, day 1, toxicokinetics, mean",,AUC(0-t),106 ng·h/mL
CN1Cc2cc(Cl)ccc2-n2c(nnc2C2CCN(c3cccc([18F])n3)CC2)C1,PET two-tissue compartment model,"rhesus monkey, male, striatum","intravenous, dose not given, 70 min scan, baseline scan",,total volume of distribution,1.06 ± 0.3 mL/cm3
CC[C@H](C)[C@H](NC(=O)[C@H](CCCNC(=N)N)NC(=O)[C@H](CCCCN)NC(=O)[C@H](Cc1ccc(O)cc1)NC(=O)[C@H](CC(=O)O)NC(=O)[C@H](C)NC(=O)CNC(=O)CCOCCOCCOCCNC(=O)CN1CCN(CC(=O)O)CCN(CC(=O)O)CCN(CC(=O)O)CC1)C(=O)N[C@H](C(=O)N[C@H](C(=O)N[C@@H](CCCCN)C(=O)N[C@H](C(=O)N[C@@H](CC(N)=O)C(N)=O)C(C)C)C(C)C)[C@@H](C)O [copper-64 labelled],ex vivo gamma counting,"C57BL/6J male mice, B16-F10 tumour, heart","intravenous, 1.85 MBq, 5 min",,tissue uptake,2.52 ± 0.421 %ID/g
CC(=O)NCCCC[C@@H]1NC(=O)[C@H](Cc2c[nH]c3c(C)cccc23)NC(=O)[C@H]([C@@H](C)O)NC(=O)[C@H](CC(N)=O)NC(=O)[C@@H](NC(C)=O)C(C)(C)SSC(C)(C)[C@@H](C(=O)N[C@@H](Cc2ccc(OCCN)cc2)C(=O)N[C@@H](Cc2ccc3ccccc3c2)C(=O)NC2(C(=O)N[C@@H](CCC(=O)O)C(=O)N[C@@H](CC(N)=O)C(=O)N[C@@H](Cc3cccnc3)C(=O)N(C)CC(N)=O)CCOCC2)NC1=O,,"human, plasma","oral, 300 mg, single dose, healthy volunteers",,CL/F,7070 L/h
CC(C)[C@H](NC(=O)[C@H](Cc1c[nH]c2ccccc12)NC(=O)[C@H](CCCNC(=N)N)NC(=O)[C@H](CCCNC(=N)N)NC(=O)[C@@H](NC(=O)[C@@H](NC(=O)[C@H](CCCNC(=N)N)NC(=O)[C@@H](NC(=O)[C@@H](NC(=O)[C@H](CCCNC(=N)N)NC(=O)[C@H](CCCNC(=N)N)NC(=O)[C@@H](NC(=O)[C@H](Cc1c[nH]c2ccccc12)NC(=O)[C@H](CCCNC(=N)N)NC(=O)[C@H](CCCNC(=N)N)NC(=O)[C@@H](NC(=O)[C@H](CCCNC(=N)N)NC(=O)[C@H](CCCNC(=N)N)NC(=O)[C@@H](NC(=O)[C@H](Cc1c[nH]c2ccccc12)NC(=O)[C@H](CCCNC(=N)N)NC(=O)[C@@H](N)CCCNC(=N)N)C(C)C)C(C)C)C(C)C)C(C)C)C(C)C)C(C)C)C(C)C)C(=O)N[C@@H](CCCNC(=N)N)C(=O)N[C@@H](CCCNC(=N)N)C(=O)O,,"Swiss Webster mice, male and female","intravenous, 14 days follow-up, single dose in saline",,MTD,30 mg/kg
COc1ccc(CNc2ccc3c(c2)S(=O)(=O)C=C3)cc1,,"male C57BL/6 mice, blood","intraperitoneal, 10 mg/kg, day 8, group average",,plateletcrit,5.63 mL/L
CC[C@H](C)[C@H](NC(=O)[C@H](CCCCN)NC(=O)CNC(=O)[C@H](CC(C)C)NC(=O)[C@H](Cc1ccccc1)NC(=O)[C@H](CCCCN)NC(=O)[C@H](CO)NC(=O)[C@H](Cc1ccccc1)NC(=O)[C@H](Cc1c[nH]c2ccccc12)NC(=O)[C@H](CCC(N)=O)NC(=O)[C@@H](NC(=O)[C@H](Cc1ccccc1)NC(=O)CCCCCNC(=O)CN1CCN(CC(=O)O)CCN(CC(=O)O)CCN(CC(=O)O)CC1)C(C)C)C(=O)N[C@@H](CCC(=O)O)C(=O)N1CCC[C@H]1C(=O)N[C@@H](CC(=O)O)C(=O)N[C@H](C(=O)N[C@@H](CO)C(=O)N[C@@H](CCC(N)=O)C(=O)N[C@H](C(=O)N[C@@H](CCC(N)=O)C(=O)N[C@@H](CC(=O)O)C(=O)N1CCC[C@H]1C(=O)N[C@@H](CC(N)=O)C(=O)N[C@@H](CC(=O)O)C(=O)N[C@@H](CCC(N)=O)C(=O)N[C@@H](Cc1ccc(O)cc1)C(=O)N[C@@H](CCC(=O)O)C(=O)N1CCC[C@H]1C(=O)N[C@@H](Cc1ccccc1)C(=O)O)C(C)C)C(C)C [copper-64 labelled],dynamic PET,"mouse, CT26 tumour, checkpoint inhibitor-treated, tumour","intravenous, 100 µCi/mouse, 1860 s",,SUVmean,4.51 SUV
C/C(=N\OCCCN1CCCCC1)c1ccc(C(F)(F)F)cc1,,"mouse, plasma","oral, 100 mg/kg twice daily, day 1",,AUC(0-t),8720 ± 245 ng·h/mL
NC1CCN(C(=O)Oc2ccc(C3CCCC4(C3)OOC3(O4)C4CC5CC(C4)CC3C5)cc2)CC1 (racemic),,"male ICR mice, plasma","intravenous, 10 mg/kg",,Cmax,1520 ng/mL
CSCC[C@H](N)C(=O)N[C@@H](C)C(=O)N[C@@H](CCCNC(=N)N)C(=O)N[C@@H](CCCNC(=N)N)C(=O)N[C@@H](CC(=O)O)C(=O)N[C@@H](CCCCN)C(=O)N[C@H](C(=O)N[C@@H](CC(=O)O)C(=O)N[C@@H](Cc1ccccc1)C(=O)N[C@@H](C)C(=O)N[C@@H](CCCNC(=N)N)C(=O)N[C@@H](CCCNC(=N)N)C(=O)N[C@@H](CCCNC(=N)N)C(=O)N[C@@H](CCCNC(=N)N)C(=O)NCCCCCC(=O)NCCCCC(NC(=O)CCCCCNC(=O)[C@H](CCCNC(=N)N)NC(=O)[C@H](CCCNC(=N)N)NC(=O)[C@H](CCCNC(=N)N)NC(=O)[C@H](CCCNC(=N)N)NC(=O)[C@H](C)NC(=O)[C@H](Cc1ccccc1)NC(=O)[C@H](CC(=O)O)NC(=O)[C@@H](NC(=O)[C@H](CCCCN)NC(=O)[C@H](CC(=O)O)NC(=O)[C@H](CCCNC(=N)N)NC(=O)[C@H](CCCNC(=N)N)NC(=O)[C@H](C)NC(=O)[C@@H](N)CCSC)[C@@H](C)O)C(=O)NCCCCC(NC(=O)C(CCCCNC(=O)CCCCCNC(=O)[C@H](CCCNC(=N)N)NC(=O)[C@H](CCCNC(=N)N)NC(=O)[C@H](CCCNC(=N)N)NC(=O)[C@H](CCCNC(=N)N)NC(=O)[C@H](C)NC(=O)[C@H](Cc1ccccc1)NC(=O)[C@H](CC(=O)O)NC(=O)[C@@H](NC(=O)[C@H](CCCCN)NC(=O)[C@H](CC(=O)O)NC(=O)[C@H](CCCNC(=N)N)NC(=O)[C@H](CCCNC(=N)N)NC(=O)[C@H](C)NC(=O)[C@@H](N)CCSC)[C@@H](C)O)NC(=O)CCCCCNC(=O)[C@H](CCCNC(=N)N)NC(=O)[C@H](CCCNC(=N)N)NC(=O)[C@H](CCCNC(=N)N)NC(=O)[C@H](CCCNC(=N)N)NC(=O)[C@H](C)NC(=O)[C@H](Cc1ccccc1)NC(=O)[C@H](CC(=O)O)NC(=O)[C@@H](NC(=O)[C@H](CCCCN)NC(=O)[C@H](CC(=O)O)NC(=O)[C@H](CCCNC(=N)N)NC(=O)[C@H](CCCNC(=N)N)NC(=O)[C@H](C)NC(=O)[C@@H](N)CCSC)[C@@H](C)O)C(N)=O)[C@@H](C)O (some centres unmarked),,"C57BL/6 mouse female, lungs","dose not given, 3 h",reference: total,tissue distribution,1.21% and 2.74% and 1.76%
CC(CCC(=O)NCC(=O)O)C1CCC2C3CCC4CC(OC5OC(C(=O)O)C(O)C(O)C5O)CCC4(C)C3CC(O)C12C (centres unmarked),,human men,"dose not given, SLCO1B1 *5/*14",,plasma concentration,148 ng/mL

# Excerpt of the above:
SMILES,assay,system,setting,how to read,measurement,value
CSCC[C@H](N)C(=O)N[C@@H](C)C(=O)N[C@@H](CCCNC(=N)N)C(=O)N[C@@H](CCCNC(=N)N)C(=O)N[C@@H](CC(=O)O)C(=O)N[C@@H](CCCCN)C(=O)N[C@H](C(=O)N[C@@H](CC(=O)O)C(=O)N[C@@H](Cc1ccccc1)C(=O)N[C@@H](C)C(=O)N[C@@H](CCCNC(=N)N)C(=O)N[C@@H](CCCNC(=N)N)C(=O)N[C@@H](CCCNC(=N)N)C(=O)N[C@@H](CCCNC(=N)N)C(=O)NCCCCCC(=O)NCCCCC(NC(=O)CCCCCNC(=O)[C@H](CCCNC(=N)N)NC(=O)[C@H](CCCNC(=N)N)NC(=O)[C@H](CCCNC(=N)N)NC(=O)[C@H](CCCNC(=N)N)NC(=O)[C@H](C)NC(=O)[C@H](Cc1ccccc1)NC(=O)[C@H](CC(=O)O)NC(=O)[C@@H](NC(=O)[C@H](CCCCN)NC(=O)[C@H](CC(=O)O)NC(=O)[C@H](CCCNC(=N)N)NC(=O)[C@H](CCCNC(=N)N)NC(=O)[C@H](C)NC(=O)[C@@H](N)CCSC)[C@@H](C)O)C(=O)NCCCCC(NC(=O)C(CCCCNC(=O)CCCCCNC(=O)[C@H](CCCNC(=N)N)NC(=O)[C@H](CCCNC(=N)N)NC(=O)[C@H](CCCNC(=N)N)NC(=O)[C@H](CCCNC(=N)N)NC(=O)[C@H](C)NC(=O)[C@H](Cc1ccccc1)NC(=O)[C@H](CC(=O)O)NC(=O)[C@@H](NC(=O)[C@H](CCCCN)NC(=O)[C@H](CC(=O)O)NC(=O)[C@H](CCCNC(=N)N)NC(=O)[C@H](CCCNC(=N)N)NC(=O)[C@H](C)NC(=O)[C@@H](N)CCSC)[C@@H](C)O)NC(=O)CCCCCNC(=O)[C@H](CCCNC(=N)N)NC(=O)[C@H](CCCNC(=N)N)NC(=O)[C@H](CCCNC(=N)N)NC(=O)[C@H](CCCNC(=N)N)NC(=O)[C@H](C)NC(=O)[C@H](Cc1ccccc1)NC(=O)[C@H](CC(=O)O)NC(=O)[C@@H](NC(=O)[C@H](CCCCN)NC(=O)[C@H](CC(=O)O)NC(=O)[C@H](CCCNC(=N)N)NC(=O)[C@H](CCCNC(=N)N)NC(=O)[C@H](C)NC(=O)[C@@H](N)CCSC)[C@@H](C)O)C(N)=O)[C@@H](C)O (some centres unmarked),,"C57BL/6 mouse female, lungs","dose not given, 3 h",reference: total,tissue distribution,1.21% and 2.74% and 1.76%
CC(CCC(=O)NCC(=O)O)C1CCC2C3CCC4CC(OC5OC(C(=O)O)C(O)C(O)C5O)CCC4(C)C3CC(O)C12C (centres unmarked),,human men,"dose not given, SLCO1B1 *5/*14",,plasma concentration,148 ng/mL
